Experimental data of several laboratories.
Each line is one published result; not all experiments were run side by side.
Target: Mitogen-activated protein kinase kinase kinase 12 (MAP3K12, Homo sapiens, UniProt Q12852)

SMILES | test | test system | conditions | how to read | measurement | value
Nc1ncc2c(n1)-c1c([nH]c3ccc(C4=CCOCC4)cc13)CCC2 | binding, competition with immobilised ligand | – | 1 µM | – | remaining binding | 100%
CCn1cc(C(=O)O)c(=O)c2c(N)c(F)c(NC3CCCCC3)cc21 | kinase activity | – | 0.1 µM, added: ATP at Km | – | inhibition | 8.9%
CNC(=O)C1CCN(c2cc(C)c(F)cc2NC(=O)c2ccc(-c3cc(O)ccc3C)c(C)c2)CC1 | binding, competition with immobilised ligand | – | 1 µM | – | remaining binding | 76%
CNC1C[S+]2CC[S+]3CC[S+](C1)[Ru-4]321([N]=C=S)[n]2c3ccc(OC)cc3c3c4c(c5cc(F)c[n+]1c5c32)C(=O)NC4=O (centres unmarked) | KinomeScan | – | 0.1 µM | reference: untreated | remaining binding | 92%
CCN1CCN(Cc2ccc(C(=O)Nc3ccc(C)c(NCc4cnc5[nH]ccc5c4OC)c3)cc2C(F)(F)F)CC1 | binding, competition with immobilised ligand | – | 1 µM | – | remaining binding | 100%
Cn1cc(-c2cnc3ccc(NC(=O)Nc4ccc5sccc5c4)cc3n2)cn1 | kinase binding, KiNativ profiling, item: Lys2 peptide | PANC-1 lysate | 2.5 µM | – | inhibition | 15.6%
NC(=O)[C@@H](O)C[C@H]1CCc2sc3ncnc(O[C@H]4CC[C@H](N5CCOCC5)CC4)c3c21 | enzyme activity, inhibitor | – | 10 µM | – | inhibition | 10%
Cc1ccc(-c2c(/C=C(\C#N)C(=O)NC(C)C)n(CCCO)c3ncnc(N)c23)cc1 | cell-free assay, competition with immobilised ligand | – | 1 µM | – | remaining binding | 90%
COc1cc(Nc2nc(C)cc(-c3cnn4nc(OC)ccc34)n2)cc(C(F)(F)F)c1 | KINOMEscan | – | 1 µM, DLK | reference: DMSO | remaining binding | 92%
CS(=O)(=O)Nc1cccc(-c2csc3cnc(Nc4ccc(N5CCN(CCCCCOc6cccc7c6C(=O)N(C6CCC(=O)NC6=O)C7=O)CC5)cc4)nc23)c1 (centres unmarked) | probe labelling, inhibitor, KiNativ chemoproteomics | MOLT-4 | 1 µM | – | inhibition | 53.5%
COc1c(Cl)cccc1Nc1c(-c2ccncc2C#C[C@@]2(C)CCCN2C(=O)/C=C/CN(C)C)[nH]c2c1C(=O)NCC2 | binding, competition with immobilised ligand | – | 3 µM | – | remaining binding | 77%
NC(=O)C[C@H]1CCc2sc3ncnc(O[C@H]4CC[C@H](N5CCOCC5)CC4)c3c21 | enzyme activity, inhibitor | – | 10 µM | – | inhibition | 5%
CC(C)=CC1OC(C)(C)C2C=C3C(=O)C(Cl)=CC(O)C3C3C(O)C4OC4C(=O)C132 (centres unmarked) | cell-free assay, competition with immobilised ligand | – | 10 µM | – | remaining binding | 99%
C=CC(=O)N1CCCC(n2c(=O)c3ncccc3n(Cc3ccc(Oc4ccccc4)cc3)c2=O)C1 (centres unmarked) | cell-free assay, competition with immobilised ligand | – | 1 µM | – | remaining binding | 88%
COc1cc(Nc2nccc(-c3cnn4nc(OC)ccc34)n2)cc(C(F)(F)F)c1 | binding, competition with immobilised ligand | – | 1 µM | – | remaining binding | 96%
C=CC(=O)N1CCc2ccc(-n3c(=O)ccc4cnc5ccc(-c6cnn(C)c6)cc5c43)cc21 | KINOMEscan | – | 1 µM | reference: DMSO control | remaining binding | 100%
Cc1cnc2nc1Nc1cccc(c1)COC/C=C/COCc1cc(ccc1OCCN1CCOCC1)N2 | – | – | concentration not given, kinase construct DLK | reference: control | binding | 73%

Repeated from above:
SMILES | test | test system | conditions | how to read | measurement | value
CS(=O)(=O)Nc1cccc(-c2csc3cnc(Nc4ccc(N5CCN(CCCCCOc6cccc7c6C(=O)N(C6CCC(=O)NC6=O)C7=O)CC5)cc4)nc23)c1 (centres unmarked) | probe labelling, inhibitor, KiNativ chemoproteomics | MOLT-4 | 1 µM | – | inhibition | 53.5%
CNC(=O)C1CCN(c2cc(C)c(F)cc2NC(=O)c2ccc(-c3cc(O)ccc3C)c(C)c2)CC1 | binding, competition with immobilised ligand | – | 1 µM | – | remaining binding | 76%
COc1cc(Nc2nc(C)cc(-c3cnn4nc(OC)ccc34)n2)cc(C(F)(F)F)c1 | KINOMEscan | – | 1 µM, DLK | reference: DMSO | remaining binding | 92%
